Measured values from different studies.
Lines come from different studies, so protocols differ. Values joined by “and” are separate records of one study, mostly repeats; a detail may differ.
Target: Mitogen-activated protein kinase kinase kinase kinase 5 (MAP4K5, Homo sapiens, UniProt Q9Y4K4)

O=C(Cc1ccc(OCc2ccccc2)cc1)NC1(C(=O)O)CCN(C(=O)c2ccc(-c3cccc(Cl)c3)cc2)CC1 — result for “activity vs control”: 112% (enzyme activity, inhibitor; 10 µM).
With Cc1ccc(-c2c(/C=C(\C#N)C(=O)NC(C)C)n(CCCO)c3ncnc(N)c23)cc1 the remaining binding was 100% (cell-free assay, competition with immobilised ligand; 1 µM).
Cc1cccc(O[C@H]2CCC[C@@H](C(C)CNCc3ccncc3)C2)c1 (relative stereo) has an inhibition of -11% (enzyme activity, inhibitor; 10 µM).
N[C@H]1CC[C@H](Nc2nccc(-c3cccnc3Oc3ccc(NC(=O)NC4CC4)c4ccccc34)n2)CC1: “log2 LFQ intensity” 25.6 and 25.9 and 25.7 (kinobead competition pulldown; HEK293/HCT116 lysate mixture; 10 µM, 1 h, 4 °C; lower = stronger competition).
The remaining activity of Nc1ncc(-c2cc(-c3cnn(CC(F)(F)F)c3)ncc2F)nc1C(=O)NC1CNCC(F)C1 (centres unmarked) is reported as 84% (enzyme activity; 1 µM; reference: DMSO control).
For CN1CCN(Cc2ccc(-c3ccc(CO[C@H]4CCC[C@@H]4NC(=O)c4cc(-c5cnn(C)c5)cnc4N)cc3)cc2)CC1, the inhibition was 8% (enzyme activity, inhibitor; 0.1 µM).
NC(=O)[C@@H](O)C[C@H]1CCc2sc3ncnc(O[C@H]4CC[C@H](N5CCOCC5)CC4)c3c21 gave an inhibition of 24% (enzyme activity, inhibitor; 10 µM).
The inhibition of CCn1cc(C(=O)O)c(=O)c2c(N)c(F)c(NC3CCCCC3)cc21 is reported as -0.9% (kinase activity; 0.1 µM, together with: ATP at Km).
C=CC(=O)N1Cc2nc(-c3cc(-c4cc(Cl)cnc4Cl)c(F)cc3F)n(-c3ccncn3)c2C1 has an inhibition of 10.7% (cell-free assay, inhibitor; 1 µM).
The remaining binding of COc1c(Cl)cccc1Nc1c(-c2ccncc2C#C[C@@]2(C)CCCN2C(=O)/C=C/CN(C)C)[nH]c2c1C(=O)NCC2 is reported as 70% (binding, competition with immobilised ligand; 3 µM).
For CN1CC[C@@H](COc2cnc(C#N)cc2-c2ccn3nc(NC(=O)C4CC4)cc3c2)C1, the inhibition was 27% (enzyme activity, inhibitor; 1 µM).
For CNC(=O)C[C@H](Cc1ccc(C#N)cc1)NC(=O)c1cc(-c2ccc(CN[C@H](C)c3ccc(C)cc3)o2)ccc1Cl, “activity vs control” read 115% (enzyme activity, inhibitor; 1 µM).
With C=CC(=O)Nc1cccc(-c2cnc3[nH]cc(C(=O)NC(C)(C)C)c3n2)c1 the inhibition was 52% and 49% (kinase activity; 0.1 µM).
With CNC(=O)C1CCN(c2cc(C)c(F)cc2NC(=O)c2ccc(-c3cc(O)ccc3C)c(C)c2)CC1 the remaining binding was 93% (binding, competition with immobilised ligand; 1 µM).

Excerpt of the above:
O=C(Cc1ccc(OCc2ccccc2)cc1)NC1(C(=O)O)CCN(C(=O)c2ccc(-c3cccc(Cl)c3)cc2)CC1 — result for “activity vs control”: 112% (enzyme activity, inhibitor; 10 µM).
